Measurements pooled from the literature.
Every numbered part comes from another study and shows a few of its results, in no order. Positions count from the first letter of the parent shown.

Block 1
Target: CCND2, cyclin fold, Cln2 fusion (human)
Technique: yeast growth competition, sequencing
Matrix: yeast
Setting: weak parent motif
Baseline: not given
Direction: higher = stronger binding
Parent: CDC6 docking peptide (human); TLKGRRLVFDNQL; partner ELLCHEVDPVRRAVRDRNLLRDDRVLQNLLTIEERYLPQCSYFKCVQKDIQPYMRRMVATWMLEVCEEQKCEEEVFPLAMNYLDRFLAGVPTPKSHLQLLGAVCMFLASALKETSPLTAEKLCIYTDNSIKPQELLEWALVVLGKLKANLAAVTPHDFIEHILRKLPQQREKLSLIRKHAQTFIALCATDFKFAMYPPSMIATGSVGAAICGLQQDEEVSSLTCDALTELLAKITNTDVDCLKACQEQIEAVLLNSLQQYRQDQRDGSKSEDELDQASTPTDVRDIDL
Change | normalised enrichment score
TLKGIRLVFDNQL [R5I] | -0.0984
TLKGRRLNFDNQL [V8N] | 0.288
TLKGVRLVFDNQL [R5V] | 0.362
TLKGRRFVFDNQL [L7F] | -0.132
TLKGRRLVFDNNL [Q12N] | 0.42
TLKGRRLVFKNQL [D10K] | 0.0305
SLKGRRLVFDNQL [T1S] | 0.47
TLKGRRLVFDNQQ [L13Q] | 0.349
TLKGRRLVRDNQL [F9R] | 0.183
TLKGRTLVFDNQL [R6T] | 0.109
TLKGRKLVFDNQL [R6K] | 0.0898
TLKGRRLVFDNQY [L13Y] | 0.35
FLKGRRLVFDNQL [T1F] | -0.354

Block 2
Target: Sal-like protein 4, full length isoform B (SALL4, Homo sapiens, UniProt Q9UJQ4-2, residues 1-616)
Technique: universal PBM
Form: double-stranded DNA, one strand shown
Matrix: in vitro
Tested at: not given
Setting: 8-mer, flanks averaged, mean of replicates
Direction: higher = stronger binding
Sequence | E-score
GAACTTAC | 0.0538
GTTATCTA | 0.196
AAATACTA | 0.28
AAAAAACA | 0.273
AGGGAACT | -0.294
ATGAAGAA | 0.229
ACTACCTA | 0.0874
GATTGCAC | 0.137
GTCGACCA | -0.127
ATAGCTAG | 0.0398
TAAATCCA | 0.124
TATAGTCA | 0.269
CGGACAAA | -0.0037

Block 3
Target: Histone acetyltransferase KAT6A, both winged helices, GST fusion (KAT6A, Homo sapiens, UniProt Q92794, residues 1-181)
Technique: protein binding microarray
Form: double-stranded DNA, one strand shown
Matrix: in vitro
Tested at: not given
Setting: 8-mer, flanks averaged, mean of 2 arrays, mostly near background
Baseline: not given
Direction: higher = stronger binding
Construct (chain): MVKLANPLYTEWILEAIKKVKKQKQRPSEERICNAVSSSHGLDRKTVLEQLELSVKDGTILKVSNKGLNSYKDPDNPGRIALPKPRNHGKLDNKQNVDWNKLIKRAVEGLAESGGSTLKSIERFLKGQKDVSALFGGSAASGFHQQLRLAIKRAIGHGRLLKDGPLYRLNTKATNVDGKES
Sequence | E-score
CTGATCAG | -0.0592
CCGTCTTA | 0.0967
CAGCAGAC | -0.0781
AACCTGCG | 0.0916
GCATTAAA | -0.0508
CGCAGATA | 0.0657
GAGGATGA | -0.0802
ACAATCAT | -0.189
AATCTCCG | 0.123

Mixed results
Molecule | target | assay | system | conditions | how to read | quantity | value
PhoQ, residues 284 288 289 292 302 303 SSYNSA | PhoP, residues 12 14 15 18 19 AWHSL (Escherichia coli, UniProt P23836) | Sort-seq, measured: YFP reporter | E. coli | PhoQ-PhoP variant library, added: 10 µM Mg2+ | baseline: high Mg2+ state, higher = stronger signaling | fold induction | 1.57
